Results gathered from unrelated publications.
Each numbered part is a random draw from the data of one study; scales do not carry over between parts.
Chain of UniProt P42336 (whole entry, unmodified, looked up): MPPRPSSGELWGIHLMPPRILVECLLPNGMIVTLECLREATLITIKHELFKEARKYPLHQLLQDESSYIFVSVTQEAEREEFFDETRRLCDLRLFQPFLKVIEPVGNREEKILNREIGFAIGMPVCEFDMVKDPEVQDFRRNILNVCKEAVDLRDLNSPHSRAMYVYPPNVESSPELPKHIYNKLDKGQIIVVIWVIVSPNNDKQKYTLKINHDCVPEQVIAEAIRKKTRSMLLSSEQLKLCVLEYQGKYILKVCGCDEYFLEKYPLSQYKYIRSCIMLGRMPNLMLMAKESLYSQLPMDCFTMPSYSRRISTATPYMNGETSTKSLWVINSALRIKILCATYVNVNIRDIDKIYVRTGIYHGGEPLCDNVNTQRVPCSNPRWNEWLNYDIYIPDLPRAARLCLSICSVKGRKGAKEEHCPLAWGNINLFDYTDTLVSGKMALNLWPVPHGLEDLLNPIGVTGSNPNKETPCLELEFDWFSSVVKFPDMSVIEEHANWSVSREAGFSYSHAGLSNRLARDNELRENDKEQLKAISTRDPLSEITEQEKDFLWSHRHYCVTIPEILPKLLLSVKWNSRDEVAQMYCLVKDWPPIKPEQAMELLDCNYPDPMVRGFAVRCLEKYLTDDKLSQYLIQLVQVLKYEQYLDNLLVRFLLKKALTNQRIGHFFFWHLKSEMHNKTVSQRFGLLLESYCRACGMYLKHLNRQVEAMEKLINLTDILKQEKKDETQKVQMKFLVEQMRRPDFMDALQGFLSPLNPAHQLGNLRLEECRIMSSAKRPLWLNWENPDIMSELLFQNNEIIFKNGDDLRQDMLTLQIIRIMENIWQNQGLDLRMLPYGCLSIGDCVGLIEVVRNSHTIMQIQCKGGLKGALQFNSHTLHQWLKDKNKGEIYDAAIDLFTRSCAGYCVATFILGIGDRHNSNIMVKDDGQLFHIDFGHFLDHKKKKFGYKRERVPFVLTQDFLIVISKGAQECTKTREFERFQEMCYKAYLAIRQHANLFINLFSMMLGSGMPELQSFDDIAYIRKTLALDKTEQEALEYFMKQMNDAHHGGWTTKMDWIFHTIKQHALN
Chain of UniProt Q9UF33 (whole entry, looked up): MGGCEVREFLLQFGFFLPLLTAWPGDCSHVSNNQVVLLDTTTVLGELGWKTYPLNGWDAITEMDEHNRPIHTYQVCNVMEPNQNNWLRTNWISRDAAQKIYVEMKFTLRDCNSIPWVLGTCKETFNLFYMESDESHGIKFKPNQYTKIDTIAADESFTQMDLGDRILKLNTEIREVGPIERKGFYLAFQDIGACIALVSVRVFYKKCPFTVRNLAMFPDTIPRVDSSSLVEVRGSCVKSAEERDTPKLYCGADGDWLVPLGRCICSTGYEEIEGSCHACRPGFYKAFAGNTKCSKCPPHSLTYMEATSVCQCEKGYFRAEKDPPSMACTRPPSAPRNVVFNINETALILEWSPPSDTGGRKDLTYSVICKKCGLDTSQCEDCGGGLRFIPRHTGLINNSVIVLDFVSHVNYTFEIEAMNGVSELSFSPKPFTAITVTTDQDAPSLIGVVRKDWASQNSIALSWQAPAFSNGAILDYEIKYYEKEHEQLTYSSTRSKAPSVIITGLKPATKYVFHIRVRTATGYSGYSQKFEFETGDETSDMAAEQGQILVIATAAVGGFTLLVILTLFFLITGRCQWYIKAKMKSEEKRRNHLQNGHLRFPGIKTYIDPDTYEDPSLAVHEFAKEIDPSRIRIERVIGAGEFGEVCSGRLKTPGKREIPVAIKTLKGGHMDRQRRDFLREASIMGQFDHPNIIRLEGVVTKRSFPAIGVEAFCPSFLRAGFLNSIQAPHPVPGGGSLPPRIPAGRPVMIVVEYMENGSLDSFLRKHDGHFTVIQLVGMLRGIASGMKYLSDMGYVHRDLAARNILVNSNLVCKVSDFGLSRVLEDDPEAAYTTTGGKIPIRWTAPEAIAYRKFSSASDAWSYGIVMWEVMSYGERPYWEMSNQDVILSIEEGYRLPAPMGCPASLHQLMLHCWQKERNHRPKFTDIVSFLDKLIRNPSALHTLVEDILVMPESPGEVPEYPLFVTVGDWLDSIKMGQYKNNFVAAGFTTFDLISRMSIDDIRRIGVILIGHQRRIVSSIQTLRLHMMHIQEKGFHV
Chain of UniProt Q9UEE5 (whole entry, looked up): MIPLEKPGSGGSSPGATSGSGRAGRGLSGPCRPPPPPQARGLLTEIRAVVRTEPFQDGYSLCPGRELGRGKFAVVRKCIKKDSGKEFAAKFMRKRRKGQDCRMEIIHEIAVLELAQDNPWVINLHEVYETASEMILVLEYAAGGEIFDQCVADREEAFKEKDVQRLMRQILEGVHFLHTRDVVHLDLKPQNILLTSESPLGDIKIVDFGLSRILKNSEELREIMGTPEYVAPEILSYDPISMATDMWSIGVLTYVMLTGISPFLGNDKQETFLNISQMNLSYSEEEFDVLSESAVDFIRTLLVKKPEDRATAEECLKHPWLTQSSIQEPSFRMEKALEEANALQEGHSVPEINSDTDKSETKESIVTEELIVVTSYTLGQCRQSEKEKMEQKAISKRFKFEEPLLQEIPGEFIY
Chain of UniProt Q7L7X3 (whole entry, looked up): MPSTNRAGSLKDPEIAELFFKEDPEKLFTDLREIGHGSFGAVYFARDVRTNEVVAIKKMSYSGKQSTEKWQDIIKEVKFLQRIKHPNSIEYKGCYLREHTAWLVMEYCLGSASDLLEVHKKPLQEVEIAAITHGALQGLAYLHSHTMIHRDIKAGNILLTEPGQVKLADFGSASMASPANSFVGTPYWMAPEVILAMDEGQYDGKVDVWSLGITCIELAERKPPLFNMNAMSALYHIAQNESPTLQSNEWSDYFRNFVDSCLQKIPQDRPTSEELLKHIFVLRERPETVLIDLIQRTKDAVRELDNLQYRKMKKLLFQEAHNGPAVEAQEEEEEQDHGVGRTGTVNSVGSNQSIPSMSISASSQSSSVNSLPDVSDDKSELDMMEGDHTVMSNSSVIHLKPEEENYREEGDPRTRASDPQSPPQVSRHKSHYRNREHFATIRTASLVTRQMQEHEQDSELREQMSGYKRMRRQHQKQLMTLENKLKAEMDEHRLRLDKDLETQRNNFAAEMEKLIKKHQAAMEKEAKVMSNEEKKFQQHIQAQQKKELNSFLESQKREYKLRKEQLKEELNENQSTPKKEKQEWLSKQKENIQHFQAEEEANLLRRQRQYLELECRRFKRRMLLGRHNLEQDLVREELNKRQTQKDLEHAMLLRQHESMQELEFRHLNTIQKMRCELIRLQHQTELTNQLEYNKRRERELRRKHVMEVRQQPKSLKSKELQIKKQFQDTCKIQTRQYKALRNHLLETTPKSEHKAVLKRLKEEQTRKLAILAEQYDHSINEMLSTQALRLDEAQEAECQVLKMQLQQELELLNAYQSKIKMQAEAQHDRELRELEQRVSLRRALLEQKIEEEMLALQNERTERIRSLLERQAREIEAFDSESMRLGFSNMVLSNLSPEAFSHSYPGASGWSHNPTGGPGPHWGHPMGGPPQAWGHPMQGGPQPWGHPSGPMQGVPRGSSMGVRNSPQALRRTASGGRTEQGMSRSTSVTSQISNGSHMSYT
Chain of UniProt Q9HCP0 (whole entry, looked up): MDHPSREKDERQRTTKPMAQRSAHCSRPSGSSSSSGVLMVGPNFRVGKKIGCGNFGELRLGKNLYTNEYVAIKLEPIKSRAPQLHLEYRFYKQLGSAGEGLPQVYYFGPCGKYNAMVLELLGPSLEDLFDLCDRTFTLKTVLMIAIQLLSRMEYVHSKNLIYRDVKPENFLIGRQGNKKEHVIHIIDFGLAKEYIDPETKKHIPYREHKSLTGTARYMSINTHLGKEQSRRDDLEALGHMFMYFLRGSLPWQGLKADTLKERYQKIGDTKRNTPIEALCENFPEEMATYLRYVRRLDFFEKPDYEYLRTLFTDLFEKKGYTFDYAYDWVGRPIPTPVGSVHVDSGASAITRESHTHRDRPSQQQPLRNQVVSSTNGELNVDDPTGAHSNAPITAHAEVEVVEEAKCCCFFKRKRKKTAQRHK

Sample 1 — concentration: 1 µM
SMILES: Cc1ccc(NC(=O)c2ccnc(C(F)(F)F)c2)cc1-c1cc(OCCO)nc(N2CCOCC2)c1
target	technique	refers to	setting	reference	remaining binding
MAP3K14 (Homo sapiens, UniProt Q99558)	competitive binding, scanMAX	–	NIK, 1000 nM	–	100%
TNNI3K (Homo sapiens, UniProt Q59H18)	competitive binding panel	–	–	vehicle	62%
STK39 (Homo sapiens, UniProt Q9UEW8)	competitive binding panel	–	–	vehicle	97%
PDPK1 (Homo sapiens, UniProt O15530)	competitive binding panel	–	–	vehicle	100%
SRPK1 (Homo sapiens, UniProt Q96SB4)	competitive binding panel	–	–	vehicle	99%
CSNK1A1L (Homo sapiens, UniProt Q8N752)	competitive binding panel	–	–	vehicle	100%
RAF1 (Homo sapiens, UniProt P04049)	competitive binding panel	–	–	vehicle	1.2%
MET (Homo sapiens, UniProt P08581)	competitive binding panel	–	–	vehicle	100%
TAOK1 (Homo sapiens, UniProt Q7L7X3)	competitive binding panel	–	–	vehicle	95%
HUNK (Homo sapiens, UniProt P57058)	competitive binding panel	–	–	vehicle	100%
AAK1 (Homo sapiens, UniProt Q2M2I8)	competitive binding panel	–	–	vehicle	78%
MAP4K5 (Homo sapiens, UniProt Q9Y4K4)	competitive binding panel	–	–	vehicle	98%
STK17A (Homo sapiens, UniProt Q9UEE5)	competitive binding panel	DRAK1	–	vehicle	91%
EPHA2 (Homo sapiens, UniProt P29317)	competitive binding panel	–	–	vehicle	63%

Sample 2 — read-out: enzyme activity; mode: inhibitor; concentration: 0.5 µM; reference: control
Target: G protein-coupled receptor kinase 6 (GRK6, Homo sapiens, UniProt P43250)
Chain of UniProt P43250 (whole entry, looked up): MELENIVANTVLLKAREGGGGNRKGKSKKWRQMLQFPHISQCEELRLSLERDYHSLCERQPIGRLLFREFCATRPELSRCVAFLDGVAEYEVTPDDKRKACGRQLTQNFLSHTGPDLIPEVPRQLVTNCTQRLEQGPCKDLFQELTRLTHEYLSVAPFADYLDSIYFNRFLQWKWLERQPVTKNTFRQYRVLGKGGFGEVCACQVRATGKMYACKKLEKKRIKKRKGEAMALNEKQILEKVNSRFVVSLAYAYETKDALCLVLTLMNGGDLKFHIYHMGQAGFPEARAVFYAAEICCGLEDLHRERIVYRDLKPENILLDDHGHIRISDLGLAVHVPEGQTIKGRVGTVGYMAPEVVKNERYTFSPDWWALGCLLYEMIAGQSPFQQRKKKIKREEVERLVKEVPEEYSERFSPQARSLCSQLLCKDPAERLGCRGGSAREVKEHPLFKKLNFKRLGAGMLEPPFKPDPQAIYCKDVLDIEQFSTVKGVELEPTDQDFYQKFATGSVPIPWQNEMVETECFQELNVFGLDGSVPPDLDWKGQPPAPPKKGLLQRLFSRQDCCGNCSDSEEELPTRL
Compound	remaining activity [%]
N#Cc1c(NC(=O)c2cccc3ccccc23)sc2c1CCCC2	108
Cc1cc2ncc(-c3ccccc3)nc2cc1C	103
COc1cc2ncnc(Nc3cccc(Cl)c3)c2cc1OC	96.8
c1ccc(-c2cnc(Nc3ccc(OCCN4CCCC4)cc3)s2)cc1	96.1
O=C(NC(NC(=S)Nc1ccc(F)c([N+](=O)[O-])c1)C(Cl)(Cl)Cl)C(c1ccccc1)c1ccccc1 (stereo not drawn)	97.5
COc1cc2ncnc(Nc3ccc(O)c(Br)c3)c2cc1OC	104
COc1cc2c(cc1OC)-c1[nH]nc(Nc3cccc(F)c3)c1C2	89.4
CCN(CC)CCNC(=O)c1c(C)[nH]c(/C=C2\C(=O)Nc3ccc(Cl)cc32)c1C	46.3
c1ccc(-c2[nH]ncc2-c2ccnc3ccccc23)nc1	94.6
O=C1C(Cl)=C(N2C(=O)CCC2=O)C(=O)c2ccccc21	98.5
N#C/C(=C\c1ccc(O)c(O)c1)C(=O)NCc1ccccc1	101
Nc1cccc(-c2cc3c(Oc4cccc(O)c4)ncnc3[nH]2)c1	98
O=c1cc(-c2cccc3c2Sc2ccccc2S3)oc(N2CCOCC2)c1	83

Sample 3 — technique: competition with immobilised ligand; concentration: 0.1 µM
SMILES: CCOC(=O)c1cc2cc(-c3cc(C(=O)NCc4ccc(C(=O)O)cc4)nn3C)ccc2[nH]1
target	read-out	remaining binding [%]
BMPR1A (Homo sapiens, UniProt P36894)	binding	87
DCLK3 (Homo sapiens, UniProt Q9C098)	cell-free assay	73
CSNK1G1 (Homo sapiens, UniProt Q9HCP0)	cell-free assay	100
HCK (Homo sapiens, UniProt P08631)	cell-free assay	100
MAP3K5 (Homo sapiens, UniProt Q99683)	cell-free assay	98
STK36 (Homo sapiens, UniProt Q9NRP7)	cell-free assay	97
TAOK3 (Homo sapiens, UniProt Q9H2K8)	cell-free assay	85
MARK1 (Homo sapiens, UniProt Q9P0L2)	cell-free assay	76
MAPK7 (Homo sapiens, UniProt Q13164)	cell-free assay	100
PTK2B (Homo sapiens, UniProt Q14289)	cell-free assay	100
AKT2 (Homo sapiens, UniProt P31751)	cell-free assay	100
FGFR4 (Homo sapiens, UniProt P22455)	cell-free assay	68
MYLK3 (Homo sapiens, UniProt Q32MK0)	cell-free assay	89
PIK3CA (Homo sapiens, UniProt P42336, Q546K)	cell-free assay	95
ACVR1B (Homo sapiens, UniProt P36896)	cell-free assay	86
PIK3CA (Homo sapiens, UniProt P42336)	cell-free assay	92
EPHA6 (Homo sapiens, UniProt Q9UF33)	cell-free assay	94
Tyrosine-protein kinase ABL1, phosphorylated (ABL1, Homo sapiens, UniProt P00519, Q252H)	cell-free assay	81
PIK3CA (Homo sapiens, UniProt P42336, H1047L)	cell-free assay	100

Sample 4 — read-out: enzyme activity; mode: inhibitor; concentration: 10 µM
Target: Calcium/calmodulin-dependent protein kinase type II subunit alpha (CAMK2A, Homo sapiens, UniProt Q9UQM7)
Chain of UniProt Q9UQM7 (whole entry, looked up): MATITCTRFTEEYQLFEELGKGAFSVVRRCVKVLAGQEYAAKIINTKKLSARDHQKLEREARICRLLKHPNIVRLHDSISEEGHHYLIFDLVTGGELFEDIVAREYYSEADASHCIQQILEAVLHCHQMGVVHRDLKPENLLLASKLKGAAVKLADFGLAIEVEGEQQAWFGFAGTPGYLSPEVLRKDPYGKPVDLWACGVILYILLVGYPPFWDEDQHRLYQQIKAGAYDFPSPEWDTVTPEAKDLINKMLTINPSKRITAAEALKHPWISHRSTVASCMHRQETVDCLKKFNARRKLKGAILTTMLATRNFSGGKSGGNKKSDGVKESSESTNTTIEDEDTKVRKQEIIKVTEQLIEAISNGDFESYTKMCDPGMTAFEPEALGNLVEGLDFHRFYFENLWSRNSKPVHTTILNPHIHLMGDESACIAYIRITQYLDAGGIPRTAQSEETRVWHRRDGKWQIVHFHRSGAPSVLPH
SMILES	inhibition
CC(=O)[C@H]1CC[C@H]2[C@@H]3C[C@H](C)C4=CC(=O)CC[C@]4(C)[C@H]3[C@@H](O)C[C@]12C	-6%
O=C(O)c1cccnc1C(=O)O	-13%
Cc1[nH]c(=O)c(C#N)cc1-c1ccc2nccn2c1	-17%
CCCCCCCC/C=C\CCCCCCCC(=O)OCC	21%
O=C(O)CCc1cccc(O)c1	-33%
COc1c(O)cc(O)c2c(=O)cc(-c3ccccc3)oc12	-42%
CNCC[C@@H](Oc1ccccc1C)c1ccccc1	-2%
COc1cccc(O)c1-c1cc(=O)c2c(O)c(OC)c(OC)c(OC)c2o1	-10%
CC(C(=O)O)c1ccc2c(c1)[nH]c1ccc(Cl)cc12 (stereo not drawn)	-2%
NCC(=O)CCC(=O)O	2%
COc1cc(OC)c2c(c1)OC(c1ccc(OC)c(OC)c1)CC2O (stereo not drawn)	-5%
Nc1nc2c(ncn2[C@@H]2O[C@H](COP(=O)(O)OP(=O)(O)OP(=O)(O)O)[C@@H](O)[C@H]2O)c(=O)[nH]1	20%
c1ccc2c(c1)CCCC2C1=NCCN1 (stereo not drawn)	-9%
COc1cc(C[C@@H](CO[C@@H]2O[C@H](CO)[C@@H](O)[C@H](O)[C@H]2O)[C@H](CO[C@@H]2O[C@H](CO)[C@@H](O)[C@H](O)[C@H]2O)Cc2ccc(O)c(OC)c2)ccc1O	14%
